Measurements collected from several papers.

COc1ccc(NC(=O)Cn2cc(COc3ccc(-c4nc5ccccc5c(=O)n4Nc4ccc([N+](=O)[O-])cc4[N+](=O)[O-])cc3OC)nn2)cc1  inhibition (DPPH scavenging, absorbance; 100 µM): 12.4%
O=S(=O)(Nc1nccs1)c1ccc(N=NN(O)c2ccccc2)cc1  inhibition (DPPH scavenging, absorbance; 300 µg/mL): 37.7%
CCc1ccc(NC(=O)Cn2cc(COc3ccc(-c4nc5ccccc5c(=O)n4Nc4ccc([N+](=O)[O-])cc4[N+](=O)[O-])cc3OC)nn2)cc1  inhibition (DPPH scavenging, absorbance; 100 µM): 14.9%
Oc1ccc(Br)cc1C=NCCN1CCOCC1  inhibition (DPPH scavenging, absorbance; 200 µM): 40.3%
CCCCCCCCCCCC1NCCc2cc(O)c(O)cc21 (stereo not shown)  IC50 (ABTS scavenging; 10 min, dark): 12.3 µM
Cc1ccc(N(O)N=Nc2ccc(S(=O)(=O)Nc3cc(C)on3)cc2)cc1  inhibition (DPPH scavenging, absorbance; 120 µg/mL): 22.8%
O=C1O[C@H]([C@@H](O)CO)C(O)=C1O  inhibition (DPPH scavenging; 500 µg/mL): 62.2%
Cc1cc(NS(=O)(=O)c2ccc(N=NN(C)O)cc2)no1  inhibition (DPPH scavenging, absorbance; 180 µg/mL): 37.1%
COc1cc(C2NCCc3cc(O)c(O)cc32)cc(OC)c1O (stereo not shown)  IC50 (ABTS scavenging; 10 min, dark): 6.53 µM
COc1cc(-c2nc3ccccc3c(=O)n2Nc2ccc([N+](=O)[O-])cc2[N+](=O)[O-])ccc1OCc1cn(CC(=O)Nc2ccc(Cl)cc2)nn1  inhibition (DPPH scavenging, absorbance; 100 µM): 11.8%
COc1ccc(C2NCCc3cc(O)c(O)cc32)cc1O (stereo not shown)  IC50 (ABTS scavenging; 10 min, dark): 13.5 µM
Cc1cccc(N(O)N=Nc2ccc(S(=O)(=O)Nc3nccs3)cc2)c1  inhibition (DPPH scavenging, absorbance; 240 µg/mL): 35.5%
COc1cc(-c2nc3ccccc3c(=O)n2Nc2ccc([N+](=O)[O-])cc2[N+](=O)[O-])ccc1OCc1cn(CC(=O)Nc2ccc(Br)cc2)nn1  inhibition (DPPH scavenging, absorbance; 100 µM): 14.9%

Repeated from above:
O=S(=O)(Nc1nccs1)c1ccc(N=NN(O)c2ccccc2)cc1  inhibition (DPPH scavenging, absorbance; 300 µg/mL): 37.7%
